Measurements pooled from the literature.
Each numbered part is a random draw from the data of one study; scales do not carry over between parts.

Sample 1 — method: RNA Bind-n-Seq; molecule type: RNA; sample: in vitro; concentration: 200 nM; setting: whole 134-nt RNA, ends assumed; together with: 150 mM KCl; relative to: input library; direction: higher = stronger binding
Target: Fragile X messenger ribonucleoprotein 1, C-terminal low-complexity region (Fmr1, Mus musculus, UniProt P35922)
Shared flanks, not repeated: GGGAGUUCUACAGUCCGACGAUC … UGGAAUUCUCGGGUGUCAAGG
Oligonucleotide | log2 enrichment
UGUCUGCGGACCUGGUUUCAGCGCUGGUGGGACUGCAGCCGGAGGUCAGCCCAGCAGAGACUGCAGCUGGAGAGGGCAGUGCAACACCAC | -0.991
UGUGUGCAUUCCCUGCGCCAAGGGCUUCCCCAGCUCUGAGCAGCUCAAUGCGCACGUGGAGACUCACACGGAGGAAGAGCUGUUCAUCAA | -1.4
UAACUUUAGAGGAGGAUCUGAUGGAUAUGGCAGUGGACGUGGAUUUGGUGAUGGCUAUAAUGGGUAUGGAGGAGGACCUGGAGGUGGCAA | 0.224
UCCUGUGCUACACAUCGUAUGUACCGAAUCAAACCCCCAAAUUUUUUUAAAUUUUUAAAAAAGUAUUAUGUUACGCCGUUCGGAUCUGCA | 0.495
AAGUCCUGUGCUACACAUCGUAUGUACCGAAUCGGGAAAAAGGGUUUUUGGGUGGGAAAGUAUUAUGUUACGCCGUUCGGAUCUGCACUU | 0.849
CUGCGCGCGGAUUUCCCUCUCUGAGGAAGUUUAUCCUUGUGCCUUCUGGAGGAUUUCUCUCUAGCUCGACUCACUCUGGACUGACUCGCU | -0.678
CCUGUGCUACACAUCGUAUGUACCGAAUCGGGGAAAAAAAGGGGAAAAAGGGGAAAGGGGAAAGUAUUAUGUUACGCCGUUCGGAUCUGC | 0.109
AGUCCUGUGCUACACAUCGUAUGUACCGAAUCGGGGUGGGGAAAAAGGGGAAAGGGGAAAGUAUUAUGUUACGCCGUUCGGAUCUGCACU | 0.619
UGUGCUACACAUCGUAUGUACCGAAUCGGAAAAAAAGGGGAAAAAAAGGGGAAAAAAAGGGGAAAGUAUUAUGUUACGCCGUUCGGAUCU | -0.166
GUCCUGUGCUACACAUCGUAUGUACCGAAUCGGGUUUUUUGGUUUUUUGGUUUUUUGGGAAAGUAUUAUGUUACGCCGUUCGGAUCUGCA | -0.866
GCAGGAAGUAAAAACAAAUGGAAAUAAAUCGGAUAGUGGCAGGGGUGGGGGUUGCUAAGGAAAGGGUGGGAUGGGAGUGGGUAAAGAGUU | 0.241
AGUCCUGUGCUACACAUCGUAUGUACCGAAUCGGGUUUUUUUGGGAAAGGGAAAGGGAAAGUAUUAUGUUACGCCGUUCGGAUCUGCACU | -0.0233
UAAUUUAGAUCUUAAAGAAAAAGUGGAGCCUGAGGUUCUCAGCACUGAUACCCAAACUUCCCCAGAGCCAGGCACAAGGAUGAACAUUCU | -0.512
GUCCUGUGCUACACAUCGUAUGUACCGAAUCGGGGAAAAAGGGGUUUUUGGGGUGGGGAAAGUAUUAUGUUACGCCGUUCGGAUCUGCAC | 0.567

Sample 2 — method: RNA Bind-n-Seq; molecule type: RNA; sample: in vitro; concentration: 365 nM; relative to: no-protein control; direction: higher = stronger binding
Target: RNA binding protein fox-1 homolog 2, RRM domain, GST-SBP tag (RBFOX2, Homo sapiens, UniProt O43251-10, residues 100-194)
Setting: natural RNA segment, single round, ends assumed
Shared flanks, not repeated: GGGAGUUCUACAGUCCGACGAUC … UGGAAUUCUCGGGUGCCAA
Target sequence (chain): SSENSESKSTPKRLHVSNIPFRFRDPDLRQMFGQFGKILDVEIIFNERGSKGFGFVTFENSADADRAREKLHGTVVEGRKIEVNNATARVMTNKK
Oligonucleotide | RBNS enrichment (R)
UGACACAGAGCCUUCUGUGCUGUUUCCUGUCCUAGGUUUGAGAGACCAAAUAUGAACUUGUGAGUUGUGUCAAUGCAGAGAACCGGGGUUUUGUGUUAAUAGAGUAUUGU | 0.987
UGAGAGGCUGGCUUUUGUUUACUAAGUUGUAGCAUUUAGACAUCCCAUGGCAGUCUAACUUAGCCUGCUUGUCUAAAUUGACUUCUGGUAACCACUUGGGCUAGGACACA | 0.376
UGGGACCAGGCCCCGGAUCCUCACGGGCAACCCUCGAGUAGACCUUCAGGAGAUUAACAACUGGGUGCAGGCCCAGAUGAAAGGGAAGAUUGCCCGGUCCACGAGGGAAA | 0.55
CAUUUCCAGGUAAGAGGAUCAGCGGAGAUAACUAGCAAUUUGGAGGUUAGUGUUUAGCUCUACCAAACCUGAGUCAGCCGAAUGGAAGUUAUAUGGGCCUGUAACACAAA | 0.41
CCCCCCGGGGGGGGCAUUCGAAUCACCUCAGUUGCUGCUGUAAUAAAGUCUACUUUUUGCUAAAGCAUCUUGUGUUGUGCUUGCGGCUCAGUGGGUGGCACCGCCGCUUC | 0.259
CUUGGCCACUCUGGCCCUGAGCCUGGCUGAAUAGCAGGGCCCGUGUGUGUAGGCUCCCUUCUCACCCCAGGCACCUAGGAGCCCUCUUGCCAGUUCCUCUCUCGCUCUGU | 0.477
UUCUCCUGUUUCAUCUGGGUCAGUUUGGCCAUAAUUCUGGGGUCAGGCCAGGCCUGGGUCCUGCCCUCCCAUGGGGUGACUCAUGACCCCUCCAGCCAGGACUCUCCUAC | 0.239
AAUUUCUAAUCUCAUGAGGUCUGUGGUGCUGCAGAAUUUAUACUGCAAUGUGGACUGUUUAGAAUUCUAACCAUUUAUGAUAUUCUGGCUGUCCAGGUGAGUGGAAAUUU | 0.54
GAGAAUGGCUGCCAGUGGCUGAUGGGUCCCGGUGAUGGGAAGGGUAUCAGGUUGCUGGGGAGUUUCCACUCUUCUCUGGUGAUUGUUCCUUCCCUCCCUUCCUCUCCCAC | 0.472
AUCUGGAAUCUGAGGCAUCCUCUGACUCCACUCAAAGAGGGUGAGGGCCUUCUUAAGAUACAAAUGGUGGAGGAUUGCUGCCAGAGAAGUCUGGUCAGAGCCACAGGGUC | 0.342
UGUGCAGGUGCUGUGGUGGGAAGCACAAAGCCGCCGCUGACUCGGUUCCCCUACUUUCUGCUUCUCCAUCCACGGCCACGGGCAACUUGUCUCUUGCGCACUCCCCCAUC | 0.377
GGCCAUAUAGUAAUGGAAAGCUGCAAUAAUUAGUUUUAAUACAGCUUGAAUAUUUGCUAUAUAGAAAUAUAGUAUGGAAAGUUUUUGGUCUUAAUGUAGCUACUGUGCGG | 0.679

Sample 3 — method: aptamer microarray, sandwich; molecule type: DNA with 2'F-ANA; sample: in vitro; concentration: 200 nM; together with: Cy3 exosite-II aptamer, 400 nM; direction: higher = stronger binding; oligonucleotide: GGTTGGTGTGGTTGG
Target: Prothrombin, mature alpha-thrombin (F2, Homo sapiens, UniProt P00734)
Setting: whole 15-mer aptamer, many near background
Modification | mean fluorescence intensity
2'F-ANA at 5 7 9 10 11 12 13 14 15 | 49.2 a.u.
2'F-ANA at 1 3 5 7 12 15 | 134 a.u.
2'F-ANA at 1 7 8 9 11 13 14 15 | 66.3 a.u.
2'F-ANA at 2 5 7 10 14 15 | 90.6 a.u.
2'F-ANA at 1 2 3 5 6 8 12 13 | 95.7 a.u.
2'F-ANA at 2 3 7 11 12 13 | 1010 a.u.
2'F-ANA at 1 3 8 11 12 15 | 518 a.u.
2'F-ANA at 3 5 6 7 8 9 10 11 14 | 50.3 a.u.
2'F-ANA at 1 2 4 6 7 8 10 12 15 | 62.6 a.u.
2'F-ANA at 2 4 8 10 | 99 a.u.
2'F-ANA at 1 5 6 7 9 | 58.1 a.u.
2'F-ANA at 5 9 11 12 13 | 93.4 a.u.
2'F-ANA at 1 6 7 10 12 13 15 | 81.2 a.u.
2'F-ANA at 2 7 10 11 12 14 15 | 87.4 a.u.
2'F-ANA at 2 3 4 9 10 12 13 14 | 189 a.u.
2'F-ANA at 2 4 6 7 9 12 13 | 315 a.u.
2'F-ANA at 2 3 6 9 11 13 | 516 a.u.
2'F-ANA at 1 6 7 9 11 13 | 106 a.u.
2'F-ANA at 4 | 393 a.u.
2'F-ANA at 1 5 7 9 10 11 13 15 | 48 a.u.
2'F-ANA at 2 6 8 9 12 14 | 146 a.u.
2'F-ANA at 1 2 7 9 10 11 | 50.8 a.u.
2'F-ANA at 2 3 4 5 8 10 14 15 | 78 a.u.
2'F-ANA at 2 3 4 6 10 11 12 13 14 15 | 149 a.u.
2'F-ANA at 1 3 4 5 6 7 11 12 14 | 46 a.u.

Sample 4 — method: protein binding microarray; molecule type: double-stranded DNA, one strand shown; sample: in vitro; concentration: not given; relative to: not given; direction: higher = stronger binding
Target: Histone acetyltransferase KAT6A, winged helix 2, GST fusion (KAT6A, Homo sapiens, UniProt Q92794, residues 85-181)
Setting: 8-mer, flanks averaged, mean of 2 arrays, mostly near background
Target sequence (chain): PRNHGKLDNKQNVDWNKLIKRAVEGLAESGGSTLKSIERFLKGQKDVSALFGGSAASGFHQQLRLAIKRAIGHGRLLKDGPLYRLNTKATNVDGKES
Oligonucleotide | E-score
AAAATTGC | -0.0124
ACTTTTGG | 0.0522
ACGGTCGA | -0.14
AAGCGCGG | -0.0619
AAGGGAGG | 0.0225
AAGGTGAA | 0.0326
TAGTGGAA | 0.0734
ACTATCAG | -0.0905
ATTTTTAC | -0.00773
GTCAGTGA | 0.0925
ATAATGTA | -0.0406
AAATATAG | 0.0948
GAGGTCCA | 0.0936
GACCTCGC | 0.077
AACTACAG | -0.0527
AGAAACAA | 0.118
AACTAAGT | 0.0159
ATAACGCC | 0.0104
CGTCGTTA | -0.149
AACCTGGG | -0.145

For quick reference, copied from above (sample 4):
Oligonucleotide | E-score
AAGGGAGG | 0.0225
AAGGTGAA | 0.0326
TAGTGGAA | 0.0734
ACTATCAG | -0.0905
ATTTTTAC | -0.00773
GTCAGTGA | 0.0925
ATAATGTA | -0.0406
AAATATAG | 0.0948
GAGGTCCA | 0.0936
GACCTCGC | 0.077
